{"data": "Experimental data from different studies", "note": "Each numbered part is a random draw from the data of one study; scales do not carry over between parts.", "UniProt O00506, sequence (whole entry, looked up)": "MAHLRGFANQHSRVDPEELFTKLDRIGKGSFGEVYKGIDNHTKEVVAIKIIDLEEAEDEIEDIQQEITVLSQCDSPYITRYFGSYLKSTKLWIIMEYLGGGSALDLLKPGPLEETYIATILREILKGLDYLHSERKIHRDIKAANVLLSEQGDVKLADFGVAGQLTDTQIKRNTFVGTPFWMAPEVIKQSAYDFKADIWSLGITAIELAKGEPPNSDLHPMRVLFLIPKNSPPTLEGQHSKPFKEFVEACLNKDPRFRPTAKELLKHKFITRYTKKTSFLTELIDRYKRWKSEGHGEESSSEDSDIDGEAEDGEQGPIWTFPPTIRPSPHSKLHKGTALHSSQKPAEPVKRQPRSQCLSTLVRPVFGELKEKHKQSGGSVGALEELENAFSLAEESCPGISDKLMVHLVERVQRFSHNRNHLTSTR", "UniProt Q00536, sequence (whole entry, looked up)": "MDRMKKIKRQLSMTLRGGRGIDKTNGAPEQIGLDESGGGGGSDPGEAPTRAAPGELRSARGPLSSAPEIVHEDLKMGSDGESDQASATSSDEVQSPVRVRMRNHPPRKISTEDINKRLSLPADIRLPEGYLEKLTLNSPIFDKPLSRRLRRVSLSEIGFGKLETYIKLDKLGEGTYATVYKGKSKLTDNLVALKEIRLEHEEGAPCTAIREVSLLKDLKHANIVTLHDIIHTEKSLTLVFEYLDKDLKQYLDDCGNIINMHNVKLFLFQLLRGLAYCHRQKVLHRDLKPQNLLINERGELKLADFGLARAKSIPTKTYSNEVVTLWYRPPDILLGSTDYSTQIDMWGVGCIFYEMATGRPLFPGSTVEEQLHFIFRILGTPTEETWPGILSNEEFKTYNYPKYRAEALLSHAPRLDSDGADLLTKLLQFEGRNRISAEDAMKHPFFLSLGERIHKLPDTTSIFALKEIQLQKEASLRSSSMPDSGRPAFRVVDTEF", "UniProt P42336, sequence (whole entry, looked up)": "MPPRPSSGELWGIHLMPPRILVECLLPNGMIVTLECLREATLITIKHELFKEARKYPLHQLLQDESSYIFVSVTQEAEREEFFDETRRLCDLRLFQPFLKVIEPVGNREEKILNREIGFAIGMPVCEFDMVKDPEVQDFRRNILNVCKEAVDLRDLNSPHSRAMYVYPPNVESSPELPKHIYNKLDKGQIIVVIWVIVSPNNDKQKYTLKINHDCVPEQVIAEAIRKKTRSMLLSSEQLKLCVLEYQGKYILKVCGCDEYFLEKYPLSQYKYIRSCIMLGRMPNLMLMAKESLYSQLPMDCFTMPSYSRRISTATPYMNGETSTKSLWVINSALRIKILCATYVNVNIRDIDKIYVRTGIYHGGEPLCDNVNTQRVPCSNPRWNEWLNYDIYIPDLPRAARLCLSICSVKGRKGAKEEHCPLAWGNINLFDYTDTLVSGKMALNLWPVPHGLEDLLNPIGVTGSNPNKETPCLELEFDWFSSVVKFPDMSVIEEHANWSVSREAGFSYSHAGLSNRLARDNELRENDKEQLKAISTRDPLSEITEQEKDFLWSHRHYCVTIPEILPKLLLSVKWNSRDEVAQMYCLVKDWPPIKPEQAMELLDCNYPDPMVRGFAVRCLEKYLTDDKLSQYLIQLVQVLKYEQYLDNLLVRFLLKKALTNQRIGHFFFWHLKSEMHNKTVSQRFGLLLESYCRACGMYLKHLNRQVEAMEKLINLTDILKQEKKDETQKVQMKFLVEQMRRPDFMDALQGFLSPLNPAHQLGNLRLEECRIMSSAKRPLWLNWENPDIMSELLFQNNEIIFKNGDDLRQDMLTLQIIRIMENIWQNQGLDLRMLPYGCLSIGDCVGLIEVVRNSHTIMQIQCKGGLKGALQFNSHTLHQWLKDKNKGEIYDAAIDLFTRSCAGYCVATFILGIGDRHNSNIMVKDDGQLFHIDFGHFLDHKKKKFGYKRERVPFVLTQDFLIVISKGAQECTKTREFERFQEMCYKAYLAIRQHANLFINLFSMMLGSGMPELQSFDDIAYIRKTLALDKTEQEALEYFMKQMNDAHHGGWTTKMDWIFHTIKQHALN", "UniProt P35626, sequence (whole entry, looked up)": "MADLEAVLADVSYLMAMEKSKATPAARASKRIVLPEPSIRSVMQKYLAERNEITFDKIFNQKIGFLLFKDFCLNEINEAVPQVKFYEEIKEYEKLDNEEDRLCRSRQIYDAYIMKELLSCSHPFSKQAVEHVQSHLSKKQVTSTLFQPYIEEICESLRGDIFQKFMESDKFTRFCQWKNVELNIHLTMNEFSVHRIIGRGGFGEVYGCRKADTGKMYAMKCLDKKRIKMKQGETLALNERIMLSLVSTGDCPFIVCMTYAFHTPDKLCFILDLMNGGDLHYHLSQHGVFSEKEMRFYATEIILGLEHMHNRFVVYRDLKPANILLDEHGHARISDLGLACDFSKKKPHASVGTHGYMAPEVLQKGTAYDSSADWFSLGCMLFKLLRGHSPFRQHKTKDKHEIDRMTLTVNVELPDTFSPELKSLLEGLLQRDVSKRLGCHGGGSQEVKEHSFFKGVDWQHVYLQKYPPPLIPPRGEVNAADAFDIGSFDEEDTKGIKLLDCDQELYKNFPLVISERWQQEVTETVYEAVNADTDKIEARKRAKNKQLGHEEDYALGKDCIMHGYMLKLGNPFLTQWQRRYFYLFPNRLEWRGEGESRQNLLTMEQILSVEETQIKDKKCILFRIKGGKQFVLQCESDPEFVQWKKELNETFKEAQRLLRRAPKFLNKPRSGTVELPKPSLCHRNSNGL", "UniProt O43283, sequence (whole entry, looked up)": "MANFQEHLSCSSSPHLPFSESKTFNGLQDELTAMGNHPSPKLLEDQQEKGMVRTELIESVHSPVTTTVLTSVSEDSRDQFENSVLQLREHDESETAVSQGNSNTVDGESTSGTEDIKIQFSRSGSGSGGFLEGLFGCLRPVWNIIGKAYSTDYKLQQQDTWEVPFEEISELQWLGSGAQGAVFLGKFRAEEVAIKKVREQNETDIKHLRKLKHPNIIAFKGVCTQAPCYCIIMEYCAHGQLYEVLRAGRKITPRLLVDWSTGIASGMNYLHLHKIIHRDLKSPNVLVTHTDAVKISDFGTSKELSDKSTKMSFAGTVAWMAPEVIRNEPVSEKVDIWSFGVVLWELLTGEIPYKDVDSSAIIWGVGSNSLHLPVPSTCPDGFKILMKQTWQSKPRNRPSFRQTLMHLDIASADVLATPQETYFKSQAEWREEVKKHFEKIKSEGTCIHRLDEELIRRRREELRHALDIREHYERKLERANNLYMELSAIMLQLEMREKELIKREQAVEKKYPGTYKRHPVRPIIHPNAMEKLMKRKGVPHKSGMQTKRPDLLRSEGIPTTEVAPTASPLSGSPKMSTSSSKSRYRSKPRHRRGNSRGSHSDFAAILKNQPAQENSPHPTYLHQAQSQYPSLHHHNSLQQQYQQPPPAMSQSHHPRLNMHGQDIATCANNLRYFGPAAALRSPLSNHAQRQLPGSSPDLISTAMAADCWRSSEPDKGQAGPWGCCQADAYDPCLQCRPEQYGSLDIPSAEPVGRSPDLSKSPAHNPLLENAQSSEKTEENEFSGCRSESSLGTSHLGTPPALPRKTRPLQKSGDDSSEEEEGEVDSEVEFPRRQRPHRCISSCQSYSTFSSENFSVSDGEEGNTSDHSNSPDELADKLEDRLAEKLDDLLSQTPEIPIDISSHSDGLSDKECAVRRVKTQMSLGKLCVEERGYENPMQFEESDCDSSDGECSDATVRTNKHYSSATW"}
{"data": "Sample 1", "SMILES": "CC(=O)Nc1c(C(C)=O)c(=O)n(C)c2nc(-c3ccc(Cl)cc3Cl)c(-c3ccc(Cl)cc3)cc12", "effect on": "cell-free assay", "technique": "competition with immobilised ligand", "concentration": "1 µM"}
{"target": "CDK16 (Homo sapiens, UniProt Q00536)", "remaining binding": "100%"}
{"target": "STK25 (Homo sapiens, UniProt O00506)", "remaining binding": "100%"}
{"target": "MST1R (Homo sapiens, UniProt Q04912)", "remaining binding": "100%"}
{"target": "GRK3 (Homo sapiens, UniProt P35626)", "remaining binding": "99%"}
{"target": "MAP3K13 (Homo sapiens, UniProt O43283)", "remaining binding": "100%"}
{"target": "PIK3CA (Homo sapiens, UniProt P42336)", "remaining binding": "100%"}
{"data": "Sample 2", "target": "Beta-1 adrenergic receptor (ADRB1, Homo sapiens, UniProt P08588)", "mode": "agonist", "UniProt P08588, sequence (whole entry, looked up)": "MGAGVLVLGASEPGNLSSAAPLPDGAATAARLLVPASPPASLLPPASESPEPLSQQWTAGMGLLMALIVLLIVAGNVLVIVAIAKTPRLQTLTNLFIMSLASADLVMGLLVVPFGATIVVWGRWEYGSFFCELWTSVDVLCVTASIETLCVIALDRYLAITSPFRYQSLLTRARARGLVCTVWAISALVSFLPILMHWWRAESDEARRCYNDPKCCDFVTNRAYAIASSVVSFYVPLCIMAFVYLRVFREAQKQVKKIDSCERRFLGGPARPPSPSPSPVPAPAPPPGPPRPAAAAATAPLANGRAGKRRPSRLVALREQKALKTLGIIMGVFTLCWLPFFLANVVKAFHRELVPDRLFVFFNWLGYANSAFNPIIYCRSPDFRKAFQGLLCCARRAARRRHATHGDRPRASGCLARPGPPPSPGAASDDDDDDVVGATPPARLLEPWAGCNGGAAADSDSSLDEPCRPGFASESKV"}
{"Compound": "Cc1ccc2c(C(=O)N3CCC(F)(F)CC3)cc(-c3cnn(C(C)C)c3)nc2c1", "EC50 [µM]": "≥ 100"}
{"Compound": "COc1ccc(C(=O)NC[C@H]2O[C@@H](CC(=O)N3CCN(c4ccccc4OC)CC3)[C@H](O)[C@@H]2O)cc1", "EC50 [µM]": "≥ 100"}
{"Compound": "c1ccc(-c2nc(-c3cnc4ccccc4n3)cs2)cc1", "EC50 [µM]": "≥ 100"}
{"Compound": "CN(C)Cc1cc(CC2(NCc3ccc(N(C)C)cc3)COC2)no1", "EC50 [µM]": "≥ 100"}
{"data": "Sample 3", "cell line": "mouse MPNST tumor cells", "technique": "high-content nuclear imaging", "refers to": "cell number", "concentration": "10 µM", "time": "12 h", "notes": "mean of 2 replicates", "baseline": "plate mean", "direction": "higher = more cells"}
{"Structure (SMILES)": "CC(C)Cc1sc(N)nc1-c1ccc(P(=O)(O)O)o1", "nuclei count [z-score]": 2.5}
{"Structure (SMILES)": "CO[C@@H]1[C@@H](OC(N)=O)[C@@H](O)[C@H](Oc2ccc3c(O)c(NC(=O)c4ccc(O)c(CC=C(C)C)c4)c(=O)oc3c2C)OC1(C)C", "nuclei count [z-score]": 0.332}
{"Structure (SMILES)": "NS(=O)(=O)c1ccc(-n2nc(C(F)(F)F)cc2-c2ccc(Cl)cc2)cc1", "nuclei count [z-score]": 2.19}
{"Structure (SMILES)": "COCCOC(=O)C1=C(C)NC(C)=C(C(=O)OC(C)C)C1c1cccc([N+](=O)[O-])c1 (centres unmarked)", "nuclei count [z-score]": 1.45}
{"data": "Sample 4", "target": "Wee1-like protein kinase (WEE1, Homo sapiens, UniProt P30291)", "effect on": "enzyme activity", "mode": "inhibitor", "concentration": "0.5 µM", "baseline": "control", "UniProt P30291, sequence (whole entry, looked up)": "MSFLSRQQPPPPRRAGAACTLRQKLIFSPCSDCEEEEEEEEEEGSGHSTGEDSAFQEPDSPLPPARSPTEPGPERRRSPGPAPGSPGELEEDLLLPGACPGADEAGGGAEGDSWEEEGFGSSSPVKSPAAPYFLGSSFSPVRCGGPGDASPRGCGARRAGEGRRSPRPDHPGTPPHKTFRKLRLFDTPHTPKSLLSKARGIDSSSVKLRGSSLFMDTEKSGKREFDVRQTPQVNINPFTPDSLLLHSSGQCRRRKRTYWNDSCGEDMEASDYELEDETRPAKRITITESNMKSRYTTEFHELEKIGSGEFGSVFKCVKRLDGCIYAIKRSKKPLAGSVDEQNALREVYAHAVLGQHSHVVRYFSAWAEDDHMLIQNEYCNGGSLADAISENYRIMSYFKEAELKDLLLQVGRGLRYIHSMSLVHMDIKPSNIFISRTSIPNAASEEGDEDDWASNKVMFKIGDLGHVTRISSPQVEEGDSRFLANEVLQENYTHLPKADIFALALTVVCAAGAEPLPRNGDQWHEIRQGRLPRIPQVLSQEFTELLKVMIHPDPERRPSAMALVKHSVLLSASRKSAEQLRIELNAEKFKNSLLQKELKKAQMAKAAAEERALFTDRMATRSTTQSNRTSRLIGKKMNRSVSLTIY"}
{"SMILES": "CNC(=O)c1cc(Oc2ccc(NC(=O)Nc3ccc(Cl)c(C(F)(F)F)c3)cc2)ccn1", "remaining activity": "103%"}
{"SMILES": "COc1ccc(CNC(=O)Nc2ncc([N+](=O)[O-])s2)cc1", "remaining activity": "95.2%"}
{"SMILES": "O=S(=O)(c1cccc2cnccc12)N1CCCNCC1", "remaining activity": "99.9%"}
{"SMILES": "C#Cc1cccc(Nc2ncnc3cc(OCCOC)c(OCCOC)cc23)c1", "remaining activity": "95.2%"}
{"SMILES": "O=C(Nc1cccc(Nc2cc(Nc3cccc(C(F)(F)F)c3)ncn2)c1)C1CC1", "remaining activity": "94%"}
{"SMILES": "NCCNc1ncc(C(N)=O)c(Nc2cccc(C(F)(F)F)c2)n1", "remaining activity": "82%"}
{"SMILES": "CN(C)c1ccc(C=C2C(=O)Nc3ccccc32)cc1", "remaining activity": "88.6%"}
{"SMILES": "O=C1NC(=O)C(c2cn(CCCn3ccnc3)c3ccccc23)=C1Nc1ccccc1", "remaining activity": "95.8%"}
{"SMILES": "Cn1sc(=O)n(Cc2ccccc2)c1=O", "remaining activity": "92.3%"}
{"SMILES": "N#CC(C#N)=C(N)/C(C#N)=C/c1ccc(O)cc1", "remaining activity": "93.7%"}
{"SMILES": "OCC(O)CCON=C1C(c2c(O)[nH]c3ccccc23)=Nc2ccccc21 (centres unmarked)", "remaining activity": "82%"}
{"SMILES": "Nc1ccc2ncnc(NCCc3ccc(Oc4ccccc4)cc3)c2c1", "remaining activity": "86.2%"}
